Assay results pooled from the literature.
Parts stem from different laboratories: compare values within a part only.

Block 1
Target: Prothrombin, mature alpha-thrombin (F2, Homo sapiens, UniProt P00734)
Technique: aptamer microarray, sandwich
Form: DNA with 2'F-ANA
Sample: in vitro
Tested at: 200 nM
Setting: whole 15-mer aptamer, many near background
Added: Cy3 exosite-II aptamer, 400 nM
Direction: higher = stronger binding
Strand: GGTTGGTGTGGTTGG
| Modification | mean fluorescence intensity [a.u.] |
| --- | --- |
| 2'F-ANA at 1 2 3 4 7 10 12 13 15 | 87.3 |
| 2'F-ANA at 1 3 5 7 9 11 14 | 48.7 |
| 2'F-ANA at 2 3 4 5 6 9 10 12 14 | 48.4 |
| 2'F-ANA at 2 3 4 6 7 8 10 12 15 | 280 |
| 2'F-ANA at 3 5 6 10 11 12 13 15 | 64.5 |
| 2'F-ANA at 2 3 5 6 7 8 9 12 13 | 158 |
| 2'F-ANA at 4 10 11 12 | 122 |
| 2'F-ANA at 1 2 3 4 8 12 13 15 | 357 |
| 2'F-ANA at 3 5 6 11 12 14 | 52.2 |
| 2'F-ANA at 1 2 3 7 11 12 15 | 374 |
| 2'F-ANA at 1 2 5 6 8 10 11 12 13 15 | 51.7 |
| 2'F-ANA at 3 5 6 8 10 11 12 13 14 | 54.2 |
| 2'F-ANA at 1 5 7 10 11 13 14 | 44.3 |
| 2'F-ANA at 1 5 7 12 13 | 76.6 |
| 2'F-ANA at 2 3 4 5 6 7 8 9 11 13 15 | 59.7 |
| 2'F-ANA at 1 2 3 5 10 11 12 15 | 63.7 |
| 2'F-ANA at 2 4 7 8 9 11 13 14 15 | 85.9 |
| 2'F-ANA at 2 7 9 11 13 14 | 153 |
| 2'F-ANA at 1 2 3 4 6 8 10 12 15 | 68.9 |
| 2'F-ANA at 3 5 7 11 12 13 14 15 | 65.5 |

Block 2
Target: RNA binding protein fox-1 homolog 2, RRM domain, GST-SBP tag (RBFOX2, Homo sapiens, UniProt O43251-10, residues 100-194)
Technique: RNA Bind-n-Seq
Form: RNA
Sample: in vitro
Tested at: 365 nM
Setting: natural RNA segment, single round, ends assumed
Reference: no-protein control
Direction: higher = stronger binding
All sequences stand within: GGGAGUUCUACAGUCCGACGAUC … UGGAAUUCUCGGGUGCCAA
Residues (chain): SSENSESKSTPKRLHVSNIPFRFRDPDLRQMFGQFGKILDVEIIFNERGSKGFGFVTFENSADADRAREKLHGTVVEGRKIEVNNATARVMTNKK
| Strand | RBNS enrichment (R) |
| --- | --- |
| GAAACGCCCCGUGUUAAUAACUUGGUCUGAAAUUGUUUUUAUGAGCCGGGCCCCCUGUGCCUCUAGCAUAUGUGUAUUGACUCUCAUAGUUACCCUUUUCGUUUACUGUG | 0.496 |
| GGCUGCAUCGGGAGCUAGAGCCAGCUAACAUUUCCUCUUUUCAAGACUGCCCUUGAUUUGCCCCUUGGUGCCAUGUAUUUCAGAGUUAAGGUCCUGCUUUCUCCACCUGG | 0.776 |
| UGCAGGUCCAAGACCUGGACUCCUGCUUCAGCCCAGGCCAGUACUCCUUGUCUGAGGUGAAAGCCUUCAGUUUAGCUCCCUGGCCCUUGUGUGGAAGCAAUGUGGAGUGA | 0.335 |
| GGGCUCCUCCCCGAGGGCUUGCUCCUGGUGGCAGCAGCUGAGAUCAGGACAUCUGUGGCCCUGAGCCGGCUCUGGUCCUCGGCCUUUCCCAGCCUUCCCACAUCUUCCCA | 0.293 |
| UCUUAACCACUUUUGUCAUUUGUUUUUUGGAGUAGUUUUGAAAAGUGUUUUAUAUUGAGUGCACUUCUGUUCAUUUCCAUUGCUGCUUAUAUGCAGUGUUAGCCGAAUUA | 2.59 |
| CCUGGCCUCCCCACCACUGGGUCAUGUCCUCUGCACCCAGGCCCUUCCAGCUGUUCCUGCCCGAGCGGUCCCAGGGUGUGCUGGGAACUGAUUCCCCUCCUUUGACUUCU | 0.563 |
| UCAGACUGAUGUCAGCCAGCCUUCUUGGAACACAUUGCUAUUCAUUGUGGAUGCCACACAGUCCAUCUGGGGUGCCCUGUGCCUCCCAUUUUCACAGCCGCCCACUGUUG | 0.203 |
| GUGCUGUGGUGUGACCAAUGAAAAGCUGCAGUCCAGUUUUGUCCCUGGAACCUGUCCUGCACUCUUCCUGCAGUUAGGUAACUGGGGGCAUAGUCAUUCCAGUGGAGAGU | 0.308 |
| AUACCUGAAAGCAGUGAUUUACUAGAAUUGCUUUGUGUGGCUACUAAGUUUAUUUUGUCAAAAAUGACAAGGAAAAAGCCAGCUGUUUUCAUAGACCUUUUCAUUAUGAU | 0.582 |
| UGGUAACUCCAAUAUUUGGUUAAAAAAACUAUACAAAUCAGAAUAGUACUAAAAUACUGUAGAAUUUUAGCAUUUUUAUUUUGCACUUUGUGUGGAUUGAGGUGUUCAGA | 0.821 |
| UCCAACAUCACCAGCCUCGGUGACCUCAGAUGAGCCAGAUAUGCAAGAGUGAAGGAUUAUGGGAAAACGUCCAUUCCUUUUCCGUGUUUUUGAAGCCCACAGUUUUAGUU | 0.415 |
| AAUCCCUGCUAAGCCUCUACUCUGCAGGGAGACGCGACUGGCGGCUCCAGCAGGAACUACCUUUCUGAACCCGCGGAGACCCGCAUAAGCCUGACCCCUUGCUUCCUCCC | 0.359 |

Block 3
Target: PABPC1L2, full length, GST fusion (mouse, UniProt A0ABA7IW68)
Technique: RNAcompete
Form: RNA
Sample: in vitro
Tested at: 20 nM
Setting: 7-mer, probes averaged, single round
Reference: mean of 7-mers
Direction: higher = stronger binding
Target sequence (chain): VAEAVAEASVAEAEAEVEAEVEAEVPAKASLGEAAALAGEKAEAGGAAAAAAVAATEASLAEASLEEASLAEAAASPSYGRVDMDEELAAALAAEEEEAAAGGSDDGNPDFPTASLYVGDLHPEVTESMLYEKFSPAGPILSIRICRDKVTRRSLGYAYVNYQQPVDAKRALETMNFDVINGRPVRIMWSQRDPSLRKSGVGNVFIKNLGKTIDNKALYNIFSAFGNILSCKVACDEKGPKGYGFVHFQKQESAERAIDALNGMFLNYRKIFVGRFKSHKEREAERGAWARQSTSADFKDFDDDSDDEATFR
| Strand | 7-mer Z-score |
| --- | --- |
| CCGGCCG | -0.409 |
| GAAGCCA | -0.0772 |
| UCUAGAA | 0.0424 |
| CAUAGCA | -0.151 |
| AGUUCAC | -0.179 |
| CCAGUCU | -0.311 |
| AGUCUUC | -0.409 |
| UCAACAG | -0.208 |
| AAGAACG | 0.457 |
| UAGACGC | -0.199 |
| CCGGGUC | -0.0464 |
| AGAUGGA | -0.132 |
| AGAGCCC | -0.271 |
| UAGUGGA | -0.0464 |
| UAAAGCU | 0.61 |
| AUCAUCA | -0.0736 |
| CCUAGUU | -0.398 |
| GUGAGAG | -0.0047 |

Block 4
Target: RING finger protein unkempt homolog, zinc fingers 1-6, GST-SBP tag (UNK, Homo sapiens, UniProt Q9C0B0, residues 30-357)
Technique: RNA Bind-n-Seq
Form: RNA
Sample: in vitro
Tested at: not given
Setting: RNA with constant flanks, ends assumed
Reference: input RNA pool
Direction: higher = stronger binding
All sequences stand within: GGGAGUUCUACAGUCCGACGAUC … CAACAGAGGAUUGAGCAUCA
Target sequence (chain): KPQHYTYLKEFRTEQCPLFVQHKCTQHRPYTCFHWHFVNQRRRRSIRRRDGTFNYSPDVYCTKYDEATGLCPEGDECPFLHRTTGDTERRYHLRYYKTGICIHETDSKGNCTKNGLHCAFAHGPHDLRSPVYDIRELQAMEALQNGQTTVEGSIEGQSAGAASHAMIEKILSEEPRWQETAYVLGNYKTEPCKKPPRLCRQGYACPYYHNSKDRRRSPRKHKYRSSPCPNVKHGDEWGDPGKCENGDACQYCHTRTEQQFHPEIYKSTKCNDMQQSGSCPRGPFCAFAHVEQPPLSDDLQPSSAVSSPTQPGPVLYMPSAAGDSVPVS
| Strand | bound/input enrichment [ratio] |
| --- | --- |
| CGUCAAACUUUUGGUUGUGUGGGGUUUUUUGUUGUUUUUUGGGUUUUGUUUUUUAAUACUUCCGGGUCCUGAUUUGUGGGAACAGACCUUCUUGUAAAUAACCACUAUUUGAGUUGUGGC | 0.91 |
| CGAAUGUUUGCUUACUUCCGACGCAAUGCAGCCACGUGGAAGAAUGCAGUGCGUCAUAAUCUCCGUCUCCACAAGUGUUUUGUGCGAGUAGAGAACGUUAAAGGGGCAGUAUGGACAGUG | 0.199 |
| GGACAGAACAGUAAACUAAGCAGACUGUGACCAUUGGCCUCCCACUAGCCAGGAUCAACUCCGCUCUCCUUUUGUGGUCCAUGUGCUGCAUCGUCUGCCAUCAGUGUGCAACCGGCCCCC | 1.77 |
| GUGACUCUUGUAUGUAAUCCUGUGGCUUAACUACUUCUCCCUCCUUGUCCAGCACUUUUCCCGCUCUCCCGUUCCCCAUCUCCAUUGCUCUGUACUCUUUUCUUUUUUCUUGUGCUGAGA | 0.562 |
| GAUGGCCUUACUAAGUUUUUUACACCAUCACCUGAUGGUCGCAGAUCCCGAGGUGAAAUAACCGACUUUUCAAAGCACUAUCGUCCAAGGAAAAAGGUCUCUCAGAAACAGUCAUGCACU | 0.118 |
| UUAUGAUUAUUUCAGAGAUCGCGGAUUCAGGUGUGGCUCUAUGAGCAAGUGAAUAUGCGGACCGAAGGCUGUAUCAUUGGUUUUGAUGAGUAUAUGAACCUUGUAUUAGAUGAUGCAGAA | 0.569 |
| GCGUGACUCGUAGGUGAGAACGCCGAGCCGCCGCCGCCGCCGAGAAGCCCUGUUAACGCUUCCGGGAGGAGAGUCUGGUGCCGACAAGAUGGCGGACGGGGAGCUGAACGUGGACAGCCU | 0.0893 |

Block 5
Target: Sal-like protein 4, full length isoform B (SALL4, Homo sapiens, UniProt Q9UJQ4-2, residues 1-616)
Technique: universal PBM
Form: double-stranded DNA, one strand shown
Sample: in vitro
Tested at: not given
Setting: 8-mer, flanks averaged, mean of replicates
Direction: higher = stronger binding
| Strand | E-score |
| --- | --- |
| AAAGTGCA | 0.146 |
| AAGCCGAC | -0.233 |
| AAAAAGTA | 0.241 |
| CCCTAGGC | -0.162 |
| ACGGCAAT | 0.18 |
| AAAGCCTC | -0.0508 |
| CCCCTTAA | -0.0901 |
| AGCAGCGG | -0.435 |
| CGGGCCGA | -0.425 |
| CCCATGGG | -0.284 |
| AAGTCTCG | -0.231 |
| TCTTTAAA | 0.226 |
| AAGCACAA | 0.164 |
| AGGAAGGA | 0.0582 |
| ATTAGTTC | 0.192 |
| CTTTTAAC | 0.122 |
| AAAAACGT | 0.148 |
| ACCGGTGG | -0.333 |
| CGAGTCGC | -0.257 |
| GTTTTTCA | 0.163 |

Block 6
Target: Histone acetyltransferase KAT6A, both winged helices, GST fusion (KAT6A, Homo sapiens, UniProt Q92794, residues 1-181)
Technique: protein binding microarray
Form: double-stranded DNA, one strand shown
Sample: in vitro
Tested at: not given
Setting: 8-mer, flanks averaged, mean of 2 arrays, mostly near background
Reference: not given
Direction: higher = stronger binding
Construct (chain): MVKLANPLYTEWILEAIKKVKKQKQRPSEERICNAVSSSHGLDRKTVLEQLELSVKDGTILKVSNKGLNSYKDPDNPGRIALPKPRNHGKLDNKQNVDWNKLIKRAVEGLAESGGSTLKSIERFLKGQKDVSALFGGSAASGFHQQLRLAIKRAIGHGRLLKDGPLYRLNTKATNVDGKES
| Strand | E-score |
| --- | --- |
| ACTGAAGC | -0.0171 |
| ATACCGTC | 0.202 |
| GTAGATTA | 0.0709 |
| ACCCTGGG | -0.142 |
| ACGACCTA | -0.0605 |
| AATCCATT | -0.0575 |
| AATTACGT | -0.127 |
| ATTATAAC | 0.00924 |
| CTCACTCC | -0.0624 |
| TCACGACA | -0.1 |
| CAACGCTA | 0.0718 |
| CACGACTG | 0.0295 |
| GAAGGCCA | -0.159 |
| CCTAATTC | -0.201 |
| AACCGGGG | 0.0404 |
| AGGCTGCA | -0.276 |

Excerpt of the above (block 5):
| Strand | E-score |
| --- | --- |
| TCTTTAAA | 0.226 |
| AAGCACAA | 0.164 |
| AGGAAGGA | 0.0582 |
| ATTAGTTC | 0.192 |
| CTTTTAAC | 0.122 |
| AAAAACGT | 0.148 |
